{"data": "Assay results pooled from the literature", "note": "A part holds a random share of what one study measured. Changes are numbered by the printed parent chain."}
{"data": "Series 1", "target": "CCNB1, cyclin fold, Cln2 fusion (human)", "technique": "yeast growth competition, sequencing", "matrix": "yeast", "notes": "weak parent motif", "reference": "not given", "reading": "higher = stronger binding", "starting sequence": "CDC6 docking peptide (human); TLKGRRLVFDNQL"}
{"Variant": "L2C", "normalised enrichment score": 0.521}
{"Variant": "F9Y", "normalised enrichment score": 0.703}
{"Variant": "T1P", "normalised enrichment score": -0.0834}
{"Variant": "F9T", "normalised enrichment score": 0.0147}
{"data": "Series 2", "target": "RING finger protein unkempt homolog, zinc fingers 1-6, GST-SBP tag (UNK, Homo sapiens, UniProt Q9C0B0, residues 30-357)", "technique": "RNA Bind-n-Seq", "molecule type": "RNA", "matrix": "in vitro", "concentration": "not given", "notes": "RNA with constant flanks, human and mouse sites, ends assumed", "reference": "input RNA pool", "reading": "higher = stronger binding", "Target sequence (chain)": "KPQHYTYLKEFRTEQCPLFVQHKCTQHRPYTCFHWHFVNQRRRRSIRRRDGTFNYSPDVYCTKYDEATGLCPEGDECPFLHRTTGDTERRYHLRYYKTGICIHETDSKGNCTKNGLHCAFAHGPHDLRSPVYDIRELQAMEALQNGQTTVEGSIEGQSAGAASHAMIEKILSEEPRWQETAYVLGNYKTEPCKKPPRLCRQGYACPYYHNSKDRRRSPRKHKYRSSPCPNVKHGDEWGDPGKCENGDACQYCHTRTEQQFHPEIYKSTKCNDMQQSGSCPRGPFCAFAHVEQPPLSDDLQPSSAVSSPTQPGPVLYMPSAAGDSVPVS"}
{"Sequence": "GGGAGUUCUACAGUCCGACGAUCGCAGCGGGGGCCGCGGGCGGCGGCGGCGGCUCAUGCCCGGCCUGUCCCCGCGAGGGGCGGGCACCGUGACUCGGCUGGGCCCCCAGAGGCGGGCGAUGUGAAGAUGUCAGUGGGCUGUGCCAACAGAGGAUUGAGCAUCA", "bound/input enrichment [ratio]": 1.32}
{"Sequence": "GGGAGUUCUACAGUCCGACGAUCGUGAAGAAAGCUAAGAUCCGACAUUGAUAAAUGUGUGUUAUUGUUCCAUUUCUUGGGUUCUUCCUGGACUUGUCUGAGUCGACAAGAGUGCUGCACAUUGUUAAGGGGAAUCAACAGAUUCAACAGAGGAUUGAGCAUCA", "bound/input enrichment [ratio]": 0.248}
{"Sequence": "GGGAGUUCUACAGUCCGACGAUCCUCAAUCAAGAGGAUUCAGACAAUGAGAAAAUUGCCUUAUUGCAGAGCCUUCUAGAUGAUGCAAAUCUACGCAAGAAUGAGCUGGAGACGGAGAACAGGCUUGUGAAUCAGAGACUUCUACAACAGAGGAUUGAGCAUCA", "bound/input enrichment [ratio]": 0.0705}
{"Sequence": "GGGAGUUCUACAGUCCGACGAUCACAUCAAUGCAAGCUUGAAUAAGAAAAACAAAUUCUUCCUCCUAAGCCAUGGCAUAUCAGUUAUACAGAAAUACUACUUUGGGAAACAGUCUUCAGGAGAGCCUAGAUGAGCUCAUACAGCAACAGAGGAUUGAGCAUCA", "bound/input enrichment [ratio]": 0.322}
{"data": "Series 3", "target": "RNA binding protein fox-1 homolog 2, RRM domain, GST-SBP tag (RBFOX2, Homo sapiens, UniProt O43251-10, residues 100-194)", "technique": "RNA Bind-n-Seq", "molecule type": "RNA", "matrix": "in vitro", "concentration": "365 nM", "notes": "natural RNA segment, single round, ends assumed", "reference": "no-protein control", "reading": "higher = stronger binding", "Residues (chain)": "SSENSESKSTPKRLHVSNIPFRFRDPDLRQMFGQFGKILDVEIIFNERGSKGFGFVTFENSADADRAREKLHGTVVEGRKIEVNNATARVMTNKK"}
{"Sequence": "GGGAGUUCUACAGUCCGACGAUCGCAGGAUGCCCUGUUGGGGGCUUCAGGUCUCUGUGGGUGGGAAUGCAAGUGAACUUGGGAGGGGGCACGGGCCUGUAGAUCAGGGAUAGCGCUGUUGAUCCCCUCUCUGUUGGAAUUCUCGGGUGCCAA", "RBNS enrichment (R)": 0.514}
{"Sequence": "GGGAGUUCUACAGUCCGACGAUCUAGAACUUCAAAUGCGAUGGUCUUGACUAUUAGACCAGAUUUAGUAGCUCCAUAUCUAAGAUUUUUCUACCUGCCCCUCUUCAGUACAGGGAUGGCUGGCUGCUCAACACUGGAAUUCUCGGGUGCCAA", "RBNS enrichment (R)": 0.418}
{"Sequence": "GGGAGUUCUACAGUCCGACGAUCCAUUCACAUCAUUUCAUUUUGGUCUGGAUGAUGGUCUGAGCCAGGGCACAUAGAACAUUGCUAUCCAUGCAGCCUUUGGGCCCCAGGGAACGGUCACCCUGUAAAGUGCUUGGAAUUCUCGGGUGCCAA", "RBNS enrichment (R)": 0.273}
{"Sequence": "GGGAGUUCUACAGUCCGACGAUCAGUGCCCGCUGACUGCUGCCGCCACCUCUGUCUCGCUCCCUGUCAGUGCUGCUGGCACGUGGGACGCGGCAGGUGACAGCCGUUCUCAGCAUGUUUUAGAAGCUUGCCUCUGGAAUUCUCGGGUGCCAA", "RBNS enrichment (R)": 0.351}
{"data": "Further values, each from its own experiment"}
{"Substance": "PhoQ, residues 284 288 289 292 302 303 GNNTDL", "target": "PhoP, residues 12 14 15 18 19 GQAIL (Escherichia coli, UniProt P23836)", "assay": "Sort-seq, measured: YFP reporter", "system": "E. coli", "setting": "PhoQ-PhoP variant library, added: 10 µM Mg2+", "how to read": "reference: high Mg2+ state, higher = stronger signaling", "measurement": "fold induction", "result": 4.01}
{"note": "A few entries again (series 1):"}
{"Variant": "L2C", "normalised enrichment score": 0.521}
